Measured values gathered from unrelated publications.
Each numbered part is a random draw from the data of one study; scales do not carry over between parts. Changes are numbered by the printed parent chain.

Set 1
Target: CCNA1, cyclin fold, Cln2 fusion (human)
Method: yeast growth competition, sequencing
Matrix: yeast
Setting: strong parent motif
Reference: not given
Direction: higher = stronger binding
Starting sequence: E2F1 docking peptide (human); PPVKRRLDFETDH
Change | normalised enrichment score
V3S | 1.7
V3D | -0.181
K4P | 0.34
R5E | -0.232
F9C | 0.165
D8I | 1.55
D8F | 1.76
F9V | 0.196
L7D | -0.0664
K4H | 1.66
D12H | 1.82
D12G | 2
V3Y | 0.74
P2W | 1.29
D12T | 1.4
V3H | 0.604
L7R | 0.214
R5H | -0.224
F9A | 0.102

Set 2
Target: Prothrombin, mature alpha-thrombin (F2, Homo sapiens, UniProt P00734)
Method: aptamer microarray, sandwich
Form: DNA with 2'F-ANA
Matrix: in vitro
Tested at: 200 nM
Setting: whole 15-mer aptamer, many near background
Together with: Cy3 exosite-II aptamer, 400 nM
Direction: higher = stronger binding
Strand: GGTTGGTGTGGTTGG
Modification | mean fluorescence intensity [a.u.]
2'F-ANA at 1 2 6 9 10 11 | 53.5
2'F-ANA at 1 5 6 10 15 | 47.3
2'F-ANA at 1 2 3 8 11 12 13 15 | 377
2'F-ANA at 3 8 11 12 13 14 15 | 547
2'F-ANA at 1 3 4 7 8 9 11 12 14 | 85.4
2'F-ANA at 2 4 6 9 11 12 13 | 282
2'F-ANA at 1 2 3 4 6 7 11 13 | 134
2'F-ANA at 1 2 3 4 5 6 8 15 | 62.9
2'F-ANA at 1 3 6 8 9 12 14 15 | 113
2'F-ANA at 3 5 10 11 12 | 68.2
2'F-ANA at 1 3 4 5 6 8 9 10 11 12 14 15 | 53.1
2'F-ANA at 3 7 9 10 13 | 577
2'F-ANA at 1 2 3 7 9 11 12 13 15 | 277
2'F-ANA at 3 4 12 13 14 | 405
2'F-ANA at 5 6 9 10 12 14 | 44
2'F-ANA at 4 5 6 7 8 9 10 11 13 14 15 | 50.3
2'F-ANA at 1 2 3 5 6 8 9 11 12 14 15 | 67.7
2'F-ANA at 1 6 8 10 11 13 15 | 53
2'F-ANA at 2 5 6 8 9 10 13 14 15 | 48.5
2'F-ANA at 1 2 8 11 12 14 | 70.7
2'F-ANA at 1 2 5 8 13 14 | 64.3
2'F-ANA at 1 2 4 8 9 10 13 15 | 53.1

Set 3
Target: ABI1, truncated, D143A, DHFR fusion (Arabidopsis thaliana)
Method: DHFR PCA, deep sequencing
Matrix: yeast
Setting: methotrexate growth selection, single substitutions
Together with: (+)-ABA 710 µM
Reference: wild-type fitted maximum
Direction: higher = stronger binding
Starting sequence: PYL1, truncated, DHFR fusion (Arabidopsis thaliana); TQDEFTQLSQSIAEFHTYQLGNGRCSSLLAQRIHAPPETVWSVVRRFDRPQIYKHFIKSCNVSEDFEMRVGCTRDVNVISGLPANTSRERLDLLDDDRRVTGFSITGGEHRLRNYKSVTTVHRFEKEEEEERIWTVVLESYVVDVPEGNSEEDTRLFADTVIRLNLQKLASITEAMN; partner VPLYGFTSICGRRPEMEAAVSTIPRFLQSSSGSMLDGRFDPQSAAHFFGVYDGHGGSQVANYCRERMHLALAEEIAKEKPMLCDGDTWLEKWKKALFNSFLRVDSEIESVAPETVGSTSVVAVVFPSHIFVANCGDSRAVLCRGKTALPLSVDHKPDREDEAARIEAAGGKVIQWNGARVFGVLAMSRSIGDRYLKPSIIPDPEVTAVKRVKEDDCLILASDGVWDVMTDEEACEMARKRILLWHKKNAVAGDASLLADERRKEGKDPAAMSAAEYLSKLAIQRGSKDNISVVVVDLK
Change | relative binding score
E14Q | 103%
E67Q | 106%
D48R | 69.4%
S26D | 86%
T119P | 7.79%
F157P | -10.9%
V62F | 93.5%
Q167R | 104%
V137S | -3.24%
I162P | 9.12%
S104V | 80.8%
T17M | 91%
S150T | 103%
T106K | 94.4%
S117W | -6.49%
M68D | 90.9%
L169A | 14.1%
S59C | 96.8%

Set 4
Target: Ras GTPase-activating protein-binding protein 1, full length (G3BP1, Homo sapiens, UniProt Q13283)
Chain of UniProt Q13283 (whole entry, looked up): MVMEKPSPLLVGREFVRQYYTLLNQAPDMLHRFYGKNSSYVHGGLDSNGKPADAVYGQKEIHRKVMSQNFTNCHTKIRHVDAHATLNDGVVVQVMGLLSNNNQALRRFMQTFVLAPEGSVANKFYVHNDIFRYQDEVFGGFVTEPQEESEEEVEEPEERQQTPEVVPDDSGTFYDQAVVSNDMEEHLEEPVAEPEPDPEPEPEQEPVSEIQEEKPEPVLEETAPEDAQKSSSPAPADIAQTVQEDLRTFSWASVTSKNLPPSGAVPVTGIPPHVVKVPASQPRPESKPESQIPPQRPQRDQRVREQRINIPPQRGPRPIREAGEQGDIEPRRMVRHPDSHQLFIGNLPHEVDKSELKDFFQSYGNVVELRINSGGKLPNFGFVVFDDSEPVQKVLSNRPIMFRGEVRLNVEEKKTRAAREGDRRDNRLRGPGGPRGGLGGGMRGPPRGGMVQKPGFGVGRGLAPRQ
Method: RNA Bind-n-Seq
Form: RNA
Matrix: in vitro
Tested at: 200 nM
Setting: whole 134-nt RNA, ends assumed
Together with: 150 mM LiCl
Reference: input library
Direction: higher = stronger binding
Library: 7-deaza-guanosine replaces G
Constant ends, left off below: GGGAGUUCUACAGUCCGACGAUC … UGGAAUUCUCGGGUGUCAAGG
Strand | log2 enrichment
UCAAGUCCUGUGCUACACAUCGUAUGUACCGAAUCGGAGGAAAAAAAGGAAAGGAAAGUAUUAUGUUACGCCGUUCGGAUCUGCACUUCC | -0.621
UCCUCAAGUCCUGUGCUACACAUCGUAUGUACCGAAUCGGAGGGGAGGAGGGAAAGUAUUAUGUUACGCCGUUCGGAUCUGCACUUCCAG | -0.269
UAACUUUAGAGGAAGAUCUGAUGGAUAUGGCAGUGGACGUGGAUUUGGGGAUGGCUAUAAUGGGUAUGGAGGAGGACCUGGAGGUGGCAA | 0.0635
CACAGACAACACGCACCCACACAGACACAGAGGGAAGGGGUUGGGAUGGGGACAGGGUGCACAGCAGGGCGGGGUAGGACGCCAGCCCCU | -0.395
AGUCCUGUGCUACACAUCGUAUGUACCGAAUCGGGUUUUUUUGGGAAAGGGUUUGGGAAAGUAUUAUGUUACGCCGUUCGGAUCUGCACU | -2.1
UGUGAGGUGGAUUUUGUUUAUUUUUUUAGCUCAUUUCCAGGGGUGGGAAUUUUUUUUUAAUAUGUGUCAUGAAUAAAGUUGUUUUUGAAA | 0.236
UAACUUUAGAGGAGGAUCUGAUGGAUAUGGCAUUGGACGUGGAUUUGGGGAUGGCUAUAAUGGGUAUGGAGGAGGACCUGGAGGUGGCAA | -0.185
UCCUGUGCUACACAUCGUAUGUACCGAAUCGGGUUUUUUGGUUUUUUGGUUUUUUGGGGAAAGUAUUAUGUUACGCCGUUCGGAUCUGCA | -0.359
UUUAAUGUCUGCGGCACAAUGCCUGUCUGUGGGACCAUCCUGGGAAAACCUGCUUCUGGCUGUGAGGCAGAAACCCAAACUGAAGAGCUC | 0.589
UGGGAGGUGGAUUUUGUUUAUUUUUUUAGCUCAUUUCCAGGGGUUGGAAUUUUUUUUUAAUAUGUGUCAUGAAUAAAGUUGUUUUUGAAA | -0.875
CUCAAGUCCUGUGCUACACAUCGUAUGUACCGAAUCGGGUGGGUGGGAAAGGGAAAGUAUUAUGUUACGCCGUUCGGAUCUGCACUUCCA | -0.059

Set 5
Target: Interferon regulatory factor 5, full length, phosphomimetic (IRF5, Homo sapiens, UniProt Q13568-2, residues 1-514, S451D/S453D/S456D/S462D)
Method: protein-binding microarray
Form: double-stranded DNA, one strand shown
Matrix: in vitro
Tested at: 940 nM top
Setting: 60-bp whole probe
Together with: salmon DNA 0.4 mg/ml
Reference: random background probes
Direction: higher = stronger binding
Constant ends, left off below: GCCTAGCAC … GTCTTGATTCGCTTGACGCTGCTG
Strand | fitted relative affinity
TCAATTTCTGTTTTTGCACTGTGCTAG | 1.5 z-score
TTAGAACTGGAGTATCGATTAGTGCTA | 2.8 z-score
TTAGGTCTCATTTTCCTTTAGTGCTAG | 1.83 z-score
TTAGGTATCGCCTATCGGTTAGTGCTA | 3.76 z-score
TTAGGTCTCCTTTTCCTATAGTGCTAG | 0.801 z-score
TTAGGGCTGGACTTTCGGTTAGTGCTA | 2.14 z-score
TTTGGTATCCTTATCCTTTAGTGCTAG | 1.12 z-score
TTAGGACTGGACTATCGGTGAGTGCTA | -0.311 z-score
GACGAACAGGGGACTGGAGACGTGCTA | 0.526 z-score
TCAATTCTCGGGACTCACACTGTGCTA | 1.98 z-score
GACGATATCAGACTGGAAACGTGCTAG | -0.366 z-score
ATAGGTATCGGTTTCGGTTAGTGCTAG | 11.8 z-score
GACGGACTGGACTTTCGCGACGTGCTA | -0.38 z-score
TTAGATCTCAGTTGCGATTAGTGCTAG | 0.939 z-score
GACCGTATCGGTCTCGGGACGTGCTAG | 5.05 z-score
GTAGGACTGCTTATCCTTTAGTGCTAG | -0.422 z-score
CCTCTTTTTTGTTCCACGCCGTGCTAG | 1.53 z-score
GTAGATTTCAGACTGGATTAGTGCTAG | -0.268 z-score
GACGAATTGAGTATCGAGACGTGCTAG | 1.65 z-score
TCAGATCTCAGTATCGATTAGTGCTAG | 4.6 z-score
GACGGTTTCGGCTTCGGGACGTGCTAG | 9.08 z-score
GACGGTTTCCGGACTGGGGACGTGCTA | 0.498 z-score
TCACTCCTATCTTATGATACTGTGCTA | 1.01 z-score
TCATAACTCAAGATTCCTACTGTGCTA | 0.394 z-score
GACGGTTTCGGTTCCGGGTCGTGCTAG | 15.8 z-score

For quick reference, copied from above (set 2):
Modification | mean fluorescence intensity [a.u.]
2'F-ANA at 1 3 6 8 9 12 14 15 | 113
2'F-ANA at 3 5 10 11 12 | 68.2
2'F-ANA at 1 3 4 5 6 8 9 10 11 12 14 15 | 53.1
2'F-ANA at 3 7 9 10 13 | 577
2'F-ANA at 1 2 3 7 9 11 12 13 15 | 277
2'F-ANA at 3 4 12 13 14 | 405
2'F-ANA at 5 6 9 10 12 14 | 44
2'F-ANA at 4 5 6 7 8 9 10 11 13 14 15 | 50.3
2'F-ANA at 1 2 3 5 6 8 9 11 12 14 15 | 67.7
2'F-ANA at 1 6 8 10 11 13 15 | 53
2'F-ANA at 2 5 6 8 9 10 13 14 15 | 48.5
2'F-ANA at 1 2 8 11 12 14 | 70.7
2'F-ANA at 1 2 5 8 13 14 | 64.3
2'F-ANA at 1 2 4 8 9 10 13 15 | 53.1
